Measurements from different studies.
Numbered parts are unrelated; each lists some results of a single study.

Study 1
Target: Interferon regulatory factor 3, full length, phosphomimetic (IRF3, Homo sapiens, UniProt Q14653, residues 1-427, S386D/S396D/S398D/S402D/T404D/S405D)
Technique: protein-binding microarray
Form: double-stranded DNA, one strand shown
Medium: in vitro
Tested at: 2540 nM top
Setting: 60-bp whole probe
Added: salmon DNA 0.4 mg/ml
Relative to: random background probes
Reading: higher = stronger binding
Measurement: fitted relative affinity
All sequences stand within: GCCTAGCAC … GTCTTGATTCGCTTGACGCTGCTG
Residues (chain): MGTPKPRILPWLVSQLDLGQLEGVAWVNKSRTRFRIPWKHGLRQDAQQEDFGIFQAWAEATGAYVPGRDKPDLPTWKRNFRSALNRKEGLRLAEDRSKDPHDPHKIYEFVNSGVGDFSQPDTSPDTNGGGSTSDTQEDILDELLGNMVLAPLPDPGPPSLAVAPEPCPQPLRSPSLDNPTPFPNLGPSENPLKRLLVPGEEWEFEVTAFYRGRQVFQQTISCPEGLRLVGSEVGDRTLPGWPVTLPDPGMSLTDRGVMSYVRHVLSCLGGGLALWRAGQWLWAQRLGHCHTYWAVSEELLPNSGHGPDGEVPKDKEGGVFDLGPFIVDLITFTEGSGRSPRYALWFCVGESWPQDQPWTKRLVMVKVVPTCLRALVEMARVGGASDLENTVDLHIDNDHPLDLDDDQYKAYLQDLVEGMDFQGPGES
TCAACTCTCTAATTTTGAGAGTGCTAG: 0.377 z-score
TTAGGTATACTTTTCCTTTAGTGCTAG: 2.17 z-score
GACGGGCTCCTTTTCCTGACGTGCTAG: 2.56 z-score
GACGGTCTCGGTCTCCGGACGTGCTAG: 1.51 z-score
GACGGTTTCGGTCTCGCGACGTGCTAG: 8.53 z-score
GACGGTTTCGACTTCCGGGACGTGCTA: 3.75 z-score
TTAGATCTCCGACTGGATTAGTGCTAG: 0.194 z-score
TCATGCATCTGATTTCTCACTGTGCTA: -0.122 z-score
TCATATACCACTCTTGCACTGTGCTAG: 0.73 z-score
TCACCCTTGCTTTCCAAACTGTGCTAG: 2.67 z-score

Study 2
Target: Sal-like protein 4, full length isoform B (SALL4, Homo sapiens, UniProt Q9UJQ4-2, residues 1-616)
Technique: universal PBM
Form: double-stranded DNA, one strand shown
Medium: in vitro
Tested at: not given
Setting: 8-mer, flanks averaged, mean of replicates
Reading: higher = stronger binding
Measurement: E-score
ACGGACAT: -0.00485
ATGACTGC: 0.162
AATACACC: 0.16
GATCAAAA: 0.181
CAATCGAA: -0.0885
GACATACC: -0.102
ACTAGAGC: -0.177
ATACCTGA: 0.192
GGATAATA: 0.344

Study 3
Target: Histone acetyltransferase KAT6A, winged helix 1, GST fusion (KAT6A, Homo sapiens, UniProt Q92794, residues 1-85)
Technique: protein binding microarray
Form: double-stranded DNA, one strand shown
Medium: in vitro
Tested at: not given
Setting: 8-mer, flanks averaged, mean of 2 arrays, mostly near background
Relative to: not given
Reading: higher = stronger binding
Measurement: E-score
Residues (chain): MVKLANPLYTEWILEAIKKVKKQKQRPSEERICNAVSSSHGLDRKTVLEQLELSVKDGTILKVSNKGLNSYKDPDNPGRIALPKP
GATCATTA: 0.0554
GTCGGCAA: 0.292
AACTGCTT: -0.0737
CGGGTGCA: 0.0709
GACGGCGC: 0.445
GCAGTAAC: -0.0321
CGCTACCC: 0.234
CCCTTACA: -0.0156
AGGTAAAG: -0.169

Mixed results
PhoQ, residues 284 288 289 292 302 303 TSTLRA — fold induction (PhoP, residues 12 14 15 18 19 TQCLL (Escherichia coli, UniProt P23836); Sort-seq, refers to: YFP reporter; E. coli; PhoQ-PhoP variant library, added: 10 µM Mg2+; relative to: high Mg2+ state, higher = stronger signaling): 4.46
